Assay results of several laboratories.
A part holds a random share of what one study measured. Values joined by “and” are separate records of one study, mostly repeats; a detail may differ. Positions count from the first letter of the parent shown.

Block 1
Target: PABPC1L2, full length, GST fusion (mouse, UniProt A0ABA7IW68)
Technique: RNAcompete
Form: RNA
Sample: in vitro
Concentration: 20 nM
Notes: 7-mer, probes averaged, single round
Baseline: mean of 7-mers
Direction: higher = stronger binding
Target sequence (chain): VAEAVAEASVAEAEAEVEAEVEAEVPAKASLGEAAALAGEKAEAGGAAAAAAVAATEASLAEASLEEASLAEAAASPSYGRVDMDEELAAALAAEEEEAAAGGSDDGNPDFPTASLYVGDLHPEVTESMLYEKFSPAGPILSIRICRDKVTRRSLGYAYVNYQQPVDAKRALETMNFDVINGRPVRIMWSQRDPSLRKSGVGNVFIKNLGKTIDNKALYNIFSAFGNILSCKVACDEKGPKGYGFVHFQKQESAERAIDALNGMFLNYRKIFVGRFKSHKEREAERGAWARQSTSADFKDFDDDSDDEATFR
| Sequence | 7-mer Z-score |
| --- | --- |
| GUCCUGC | -0.338 |
| CGUAGAU | -0.311 |
| CACACCA | -0.148 |
| CGUUUUG | -0.393 |
| UGCAUCA | -0.215 |
| UAACGGG | 0.0768 |
| UUCCUUC | -0.271 |
| AGAGACG | 0.195 |
| GAAGUCG | -0.26 |
| AUACUUG | -0.0917 |
| UCCCGUG | -0.335 |
| AGUAAAU | 0.35 |
| GCACAAU | -0.0373 |
| UGUCAGC | -0.238 |
| UGCAGUU | -0.179 |
| CGUUAAG | -0.188 |
| CGACUGU | -0.177 |
| UGCGAAC | 0.0189 |
| UAGUACG | -0.162 |
| GGAACGA | 0.227 |
| UUGGCGU | -0.315 |
| CACAACG | -0.18 |
| UACGCCA | -0.0826 |
| CUAGUUU | -0.478 |
| GUGAUCA | -0.171 |

Block 2
Target: Ras GTPase-activating protein-binding protein 1, full length (G3BP1, Homo sapiens, UniProt Q13283)
Sequence of UniProt Q13283 (whole entry, looked up): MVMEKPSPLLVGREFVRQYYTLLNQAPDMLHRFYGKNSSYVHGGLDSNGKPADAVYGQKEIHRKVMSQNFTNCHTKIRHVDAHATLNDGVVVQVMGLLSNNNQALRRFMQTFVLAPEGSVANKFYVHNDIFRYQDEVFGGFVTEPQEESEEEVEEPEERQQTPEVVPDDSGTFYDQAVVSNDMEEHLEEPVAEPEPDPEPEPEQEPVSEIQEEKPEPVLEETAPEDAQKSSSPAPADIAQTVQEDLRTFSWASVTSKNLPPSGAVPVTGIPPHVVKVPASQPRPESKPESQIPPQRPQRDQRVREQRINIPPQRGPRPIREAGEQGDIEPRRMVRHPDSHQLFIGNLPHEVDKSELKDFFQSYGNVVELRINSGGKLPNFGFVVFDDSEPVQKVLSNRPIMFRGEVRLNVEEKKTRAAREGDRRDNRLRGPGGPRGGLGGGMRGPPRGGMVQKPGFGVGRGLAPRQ
Technique: RNA Bind-n-Seq
Form: RNA
Sample: in vitro
Concentration: 200 nM
Notes: whole 134-nt RNA, ends assumed
Added: 150 mM KCl
Baseline: input library
Direction: higher = stronger binding
Shared flanks, not repeated: GGGAGUUCUACAGUCCGACGAUC … UGGAAUUCUCGGGUGUCAAGG
| Sequence | log2 enrichment |
| --- | --- |
| CCUGUGCUACACAUCGUAUGUACCGAAUCGGGGUUUUUUGGUUUUUUGGGGUUUUUUGGGGAAAGUAUUAUGUUACGCCGUUCGGAUCUG | -0.644 |
| ACCAUGCAGGUGGGCAUCUUUGGGAAGUGGGGCAAGGGGGGGAUAGGGAGGGGGGUAACACUUUGGGAACAGGUCGUCCCAGGUCGUUUC | 1.15 |
| UGGUGGACCCGCAGCAGCUGGGCAUGUUCACGGAGGGCGAGCUGAUGUCGGUGGGUAUGGACACGUUCAUCCACCGCAUCGACUCCACCG | -1.26 |
| AGUCCUGUGCUACACAUCGUAUGUACCGAAUCGGGAAAAAGGGAAAGGGAAAAAGGGAAAGUAUUAUGUUACGCCGUUCGGAUCUGCACU | -0.433 |
| CUCAAGUCCUGUGCUACACAUCGUAUGUACCGAAUCGGGUGGGGUGGGGUGGGGAAAGUAUUAUGUUACGCCGUUCGGAUCUGCACUUCC | 1.35 |
| UCCUGUGCUACACAUCGUAUGUACCGAAUCGGGGUUUUUGGGGUUUUUGGGGUUUUUGGAAAGUAUUAUGUUACGCCGUUCGGAUCUGCA | 0.0673 |
| AAGUCCUGUGCUACACAUCGUAUGUACCGAAUCGGGAAAGGGUUUUUUUGGGAGGGAAAGUAUUAUGUUACGCCGUUCGGAUCUGCACUU | 0.2 |
| CCUCAAGUCCUGUGCUACACAUCGUAUGUACCGAAUCGGGGAGGAGGGAGGGGAAAGUAUUAUGUUACGCCGUUCGGAUCUGCACUUCCA | 1.35 |
| AGUCCUGUGCUACACAUCGUAUGUACCGAAUCGGGUUUUUGGUUUUUGGGUUUUUGGGAAAGUAUUAUGUUACGCCGUUCGGAUCUGCAC | -1.05 |
| UGGCCCUGGUGGCAUGCGGGGAGGAAGAGGUGGCCUCAUGGAUCGUGGUGUUCCCGGUGGAAUGUUCAGAGGUGGCCGUGGUGGAGACAG | 0.378 |
| UAACUUUAGAGGAGGAUCAGAUGGAUAUGGCAGUGGACGUGGAUUUGGGGAUGGCUAUAAUGGGUAUGGAGGAGGACCUGGAGGUGGCAA | 0.315 |
| ACCAUGCAGGUGGGCAUCUUUGGGAAGUGGGGCAAGGGGGGGAUAGGGAGGGGGGGAACACUUUGGGAACAGGUGGUCCCAGGUCGUUUC | 1.51 |
| UAACUUUAGAGGAGGAUCUGAUGGAUAUGGCAGUGGACGUGGAUUUGGGGAUGGCUAUAAUGGGUAUGGAGGUGGACCUGGAGGUGGCAA | 0.48 |
| UCAAGUCCUGUGCUACACAUCGUAUGUACCGAAUCGGAAAGGUUUUUGGAAAGGAAAGUAUUAUGUUACGCCGUUCGGAUCUGCACUUCC | -1.18 |

Block 3
Target: Histone acetyltransferase KAT6A, both winged helices, GST fusion (KAT6A, Homo sapiens, UniProt Q92794, residues 1-181)
Technique: protein binding microarray
Form: double-stranded DNA, one strand shown
Sample: in vitro
Concentration: not given
Notes: 8-mer, flanks averaged, mean of 2 arrays, mostly near background
Baseline: not given
Direction: higher = stronger binding
Construct (chain): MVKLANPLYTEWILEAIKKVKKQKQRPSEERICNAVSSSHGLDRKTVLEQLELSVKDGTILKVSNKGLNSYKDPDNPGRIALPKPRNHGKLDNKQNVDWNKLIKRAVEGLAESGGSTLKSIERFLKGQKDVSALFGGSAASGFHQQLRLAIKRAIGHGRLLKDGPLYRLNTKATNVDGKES
| Sequence | E-score |
| --- | --- |
| AAGAGGGA | -0.274 |
| AAAGATCG | -0.0313 |
| ATCCTCTA | -0.249 |
| TAAGTCAA | -0.0949 |
| CTTCGCCC | 0.0419 |
| ATGAAGCA | -0.267 |
| ATGGGCAA | -0.182 |
| AGCAGTTA | -0.147 |
| GACGGCGA | 0.195 |
| AGTCGTTC | -0.0947 |
| ACAAGCCC | -0.0461 |
| AGTCGGAA | 0.149 |
| CTTTATGC | 0.0705 |
| AGATAGCA | -0.171 |
| AGTTCTTG | -0.0753 |
| ACTTCTCT | -0.129 |
| ATGCGCGC | 0.394 |
| CAGATATA | -0.0579 |

Block 4
Target: CRIPT, C-terminal peptide
Technique: DHFR complementation, deep sequencing
Sample: yeast
Notes: single substitutions, model-inferred values
Baseline: wild type
Direction: higher = weaker binding
Starting sequence: ERBIN, PDZ domain 1 (human); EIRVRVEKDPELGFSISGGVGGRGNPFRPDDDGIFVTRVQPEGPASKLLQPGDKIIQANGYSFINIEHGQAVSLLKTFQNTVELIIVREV; partner TKNYKQTSV
| Change | binding free energy change [kcal/mol] |
| --- | --- |
| K54P | 1.07 |
| V72H | 1.6 |
| P10G | -0.743 |
| P51S | 0.0947 |
| P26D | 0.89 |
| I16F | 0.873 |
| V90R | 0.0829 |
| V87D | 0.0284 |
| R88L | 0.779 |
| G43M | 0.599 |
| I2W | 0.203 |
| F14V | -0.903 |
| D30P | 0.751 |
| P10H | -0.58 |
| V90G | 0.0221 |
| V39M | 0.263 |

Block 5
Target: RNA binding protein fox-1 homolog 2, RRM domain, GST-SBP tag (RBFOX2, Homo sapiens, UniProt O43251-10, residues 100-194)
Technique: RNA Bind-n-Seq
Form: RNA
Sample: in vitro
Concentration: 365 nM
Notes: natural RNA segment, single round, ends assumed
Baseline: no-protein control
Direction: higher = stronger binding
Shared flanks, not repeated: GGGAGUUCUACAGUCCGACGAUC … UGGAAUUCUCGGGUGCCAA
Construct (chain): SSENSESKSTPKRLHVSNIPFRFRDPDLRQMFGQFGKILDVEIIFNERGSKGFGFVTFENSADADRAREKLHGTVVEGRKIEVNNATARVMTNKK
| Sequence | RBNS enrichment (R) |
| --- | --- |
| UGGUGUUAAAACACUUCUGUCCUGUGAGGUUUCCCAAUGGUGUUUUUCUUGUAAAUGUGUUGGACAAAUGUGAAGAUGCAUUGUAGUUUAACCAUAUGCCCACAUUUAGU | 0.461 |
| UGGCUGAAGGAACUUAAGAUGUUCCAGCGAAGGCAGCAUUUGGGCAAGGAGUUUCAGAAGCUAGACAUGUCUGCAAUGAUUCAAAUUUGGUACGAAAGGACUGCCAACCU | 0.259 |
| UGUGUGUCUAACUCUCAGUUAUAAGCAUUCUGACCAGUGUUUAAACGUGUAAAUAAGAACACACAUAGUUAACUAAAGAACCAGGCAGUCCCCUGCUUAACUGCAGCCUG | 0.243 |
| CUUAUACAUGGAUGGCAGCAGGCAAAGAGAGAACUUGUGCAGGGGAACUCUUUAUAAAACCGUCCGAUCUUGUGAGACUUAUUCACUAUCACAAGAACAGCACAGGAAAG | 0.435 |
| CCUUUCAGGACAUCUGGGUCUAAUACAGAAGAAUUAAUAAACUGGAUGAUUACUACAGCAAAAGCAGCUAACGUUUUACUUUGUAUCUUGUGUCCUCAGAAUUAAGAACU | 0.395 |
| AUCCCCAAGCAGCCCUACAGCCGGGAUGGGAGGCACGUGGCCUCUCUUUUAUCCGUCUAUUUAUUUUGUAAGUGUAUUCGUGUGGAGGAGGUUGUUGCUUUAUUUUUUUA | 0.658 |
| UGAAAUAAAACAUAGUUAACUGUGUUUGAUGUGAAAUAAUAGAUUGUGGGUAGAGGUGAGGCCAAAAAAAAGGUUGUGGGGUGGGGGAAAGAAGGUUGCCGCCUCGACUG | 0.91 |
| GAGAAUGGGUAUUUGAUGGAGGCUGCGCCGGAGUGAGAGGUCGUCCUCUCCAUCUGCUGUGUUUGGACGCGUUCCUGCCCAGCCCCUUGCUGUCAUCCCCUCCCCCAACC | 0.618 |
| AUUGUGCAUGGAACUAAAAUGUUAUUGCCUAAUCACUCCAACCCUGCCCCUUUCUGUCCCAUCCUUCCCAAGAAGAGAGAACUUUUUCGAUAAACUAACUACUGUAGAAG | 1.77 |
| UGCCAGCAUUUCUGGAUGGAUAUAGGGACUAUCAUUAGUAUCCUAAUACACGGUGAUUUUAAAACAACCAUAAAAUUGAUUCAGAGUCCACUGACCCUUACAGAUGUAGG | 0.281 |
| AAUACUGAACCUGCCUGCUGAACAGCCUGUCCCAUCCAUCCCUAUGAGUGACCAUCCGUCCGAAUGUUCUCCCACUUCCUUCAGCCUCUCCUCGGCUUCUUGCACUGAGC | 2.81 |
| UUUUAGAGCCCCUGCUCUAGGAAACAGUUUAAGAAAUCAUUGGCCCCUUCCCAGCACAUUGAAUGGGUAAGCAGACAGGCCAUGAUUUAGUUGGCCAGCACUAACUCCAC | 0.557 |

Block 6
Target: CCNE2, cyclin fold, Cln2 fusion (human)
Technique: yeast growth competition, sequencing
Sample: yeast
Notes: weak parent motif
Baseline: not given
Direction: higher = stronger binding
Starting sequence: MASTL docking peptide (human); PMIAKNLMCELDE; partner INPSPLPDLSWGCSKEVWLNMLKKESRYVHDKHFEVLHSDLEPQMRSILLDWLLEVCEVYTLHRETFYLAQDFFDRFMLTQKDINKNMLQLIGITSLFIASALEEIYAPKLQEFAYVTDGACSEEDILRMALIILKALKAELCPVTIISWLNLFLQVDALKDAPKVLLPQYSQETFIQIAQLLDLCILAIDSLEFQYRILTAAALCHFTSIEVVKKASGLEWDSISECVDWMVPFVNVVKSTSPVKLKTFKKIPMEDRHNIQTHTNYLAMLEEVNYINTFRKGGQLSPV
| Change | normalised enrichment score |
| --- | --- |
| PMIAKNLMCEEDE [L11E] | -0.122 |
| PMIAKNLMCLLDE [E10L] | 0.31 |
| PMIAKNLMCQLDE [E10Q] | 0.185 |
| PMIAKNPMCELDE [L7P] | -0.235 |
| PMIAKNAMCELDE [L7A] | -0.148 |
| PVIAKNLMCELDE [M2V] | 0.0378 |
| PMRAKNLMCELDE [I3R] | 0.01 |
| PMIAKNLMQELDE [C9Q] | 0.27 |
| PMIAKVLMCELDE [N6V] | 0.0942 |
| PSIAKNLMCELDE [M2S] | 0.116 |
| PMIAKNLMCESDE [L11S] | 0.116 |
| PMIAKNLMSELDE [C9S] | -0.151 |
| PMIAKNHMCELDE [L7H] | -0.973 |

Further values, each from its own experiment
| Molecule | target | assay | system | conditions | how to read | quantity | value |
| --- | --- | --- | --- | --- | --- | --- | --- |
| PhoQ, residues 284 288 289 292 302 303 SMMNNA | PhoP, residues 12 14 15 18 19 LWHSL (Escherichia coli, UniProt P23836) | Sort-seq, measured: YFP reporter | E. coli | PhoQ-PhoP variant library, added: 10 µM Mg2+ | baseline: high Mg2+ state, higher = stronger signaling | fold induction | 12.9 and 17 |

For quick reference, copied from above (block 6):
| Change | normalised enrichment score |
| --- | --- |
| PMIAKNLMCLLDE [E10L] | 0.31 |
| PMIAKNLMCQLDE [E10Q] | 0.185 |
| PMIAKNPMCELDE [L7P] | -0.235 |
| PMIAKNAMCELDE [L7A] | -0.148 |
| PVIAKNLMCELDE [M2V] | 0.0378 |
| PMRAKNLMCELDE [I3R] | 0.01 |
| PMIAKNLMQELDE [C9Q] | 0.27 |
| PMIAKVLMCELDE [N6V] | 0.0942 |
| PSIAKNLMCELDE [M2S] | 0.116 |
| PMIAKNLMCESDE [L11S] | 0.116 |
